{"data": "Assay results from different studies", "B1": "human CAP2; sequence looked up; chain ANMQGLVERLERAVSRLESLSAESHRPPGNCGEVNGVIAGVAPSVEAFDKLMDSMVAEFLKNSRILAGDVETHAEMVHSAFQAQRAFLLMASQYQQPHENDVAALLKPISEKIQEIQTFRERNRGSNMFNHLSAVSESIPALGWIAVSPKPGPYVKEMNDAATFYTNRVLKDYKHSDLRHVDWVKSYLNIWSELQAYIKEHHTTGLTWSKTGPVASTVSAFSVLSSGPGLPPPPPPLPPPGPPPLFENEGKKEESSPSRSALFAQLNQGEAITKGLRHVTDDQKTYKNPSLRAQGGQTQSPTKSHTPSPTSPKSYPSQKHAPVLELEGKKWRVEYQEDRNDLVISETELKQVAYIFKCEKSTIQIKGKVNSIIIDNCKKLGLVFDNVVGIVEVINSQDIQIQVMGRVPTISINKTEGCHIYLSEDALDCEIVSAKSSEMNILIPQDGDYREFPIPEQFKTAWDGSKLITEPAEIMA", "B2": "human AHCYL1; sequence looked up; chain SMPDAMPLPGVGEELKQAKEIEDAEKYSFMATVTKAPKKQIQFADDMQEFTKFPTKTGRRSLSRSISQSSTDSYSSAASYTDSSDDEVSPREKQQTNSKGSSNFCVKNIKQAEFGRREIEIAEQDMSALISLRKRAQGEKPLAGAKIVGCTHITAQTAVLIETLCALGAQCRWSACNIYSTQNEVAAALAEAGVAVFAWKGESEDDFWWCIDRCVNMDGWQANMILDDGGDLTHWVYKKYPNVFKKIRGIVEESVTGVHRLYQLSKAGKLCVPAMNVNDSVTKQKFDNLYCCRESILDGLKRTTDVMFGGKQVVVCGYGEVGKGCCAALKALGAIVYITEIDPICALQACMDGFRVVKLNEVIRQVDVVITCTGNKNVVTREHLDRMKNSCIVCNMGHSNTEIDVTSLRTPELTWERVRSQVDHVIWPDGKRVVLLAEGRLLNLSCSTVPTFVLSITATTQALALIELYNAPEGRYKQDVYLLPKKMDEYVASLHLPSFDAHLTELTDDQAKYLGLNKNGPFKPNYYRY", "B3": "human eRF3b; sequence looked up; chain MDSGSSSSDSAPDCWDQVDMESPGSAPSGDGVSSAVAEAQREPLSSAFSRKLNVNAKPFVPNVHAAEFVPSFLRGPTQPPTLPAGSGSNDETCTGAGYPQGKRMGRGAPVEPSREEPLVSLEGSNSAVTMELSEPVVENGEVEMALEESWEHSKEVSEAEPGGGSSGDSGPPEESGQEMMEEKEEIRKSKSVIVPSGAPKKEHVNVVFIGHVDAGKSTIGGQIMFLTGMVDKRTLEKYEREAKEKNRETWYLSWALDTNQEERDKGKTVEVGRAYFETERKHFTILDAPGHKSFVPNMIGGASQADLAVLVISARKGEFETGFEKGGQTREHAMLAKTAGVKHLIVLINKMDDPTVNWSIERYEECKEKLVPFLKKVGFSPKKDIHFMPCSGLTGANIKEQSDFCPWYTGLPFIPYLDNLPNFNRSIDGPIRLPIVDKYKDMGTVVLGKLESGSIFKGQQLVMMPNKHNVEVLGILSDDTETDFVAPGENLKIRLKGIEEEEILPGFILCDPSNLCHSGRTFDVQIVIIEHKSIICPGYNAVLHIHTCIEEVEITALISLVDKKSGEKSKTRPRFVKQDQVCIARLRTAGTICLETFKDFPQMGRFTLRDEGKTIAIGKVLKLVPEKD", "note": "Lines come from different studies, so protocols differ. “And” joins repeats or separate records; there may be more than shown. ± marks the error that the study gave."}
{"Substance": "11-deoxycorticosterone", "target or system": "CYP11B2 (human)", "assay": "substrate binding, stopped-flow global kinetic fitting", "system": "purified enzyme", "setting": "model, 4-state CS, linear, together with: equimolar adrenodoxin", "measurement": "Kd", "result": "4.03 µM"}
{"Substance": "CTOP", "assay": "RP-HPLC", "system": "HALO Peptide ES-C18 column", "setting": "25 µM, acetic acid/methanol, 10 min gradient", "measurement": "retention time", "result": "7.68 min"}
{"Substance": "B1 (human CAP2)", "target or system": "PP6C (human)", "assay": "co-immunoprecipitation, IP-MS", "system": "CYB5R4 knockout cells", "setting": "concentration not given", "how to read": "baseline: CYB5R4 knockout over parental", "measurement": "log2 fold change", "result": -0.19}
{"Substance": "GEMVGQARILAQATSDLVNAIKDA", "target or system": "vinculin head domain Vd1", "assay": "complex rupture, AFM single-molecule force spectroscopy", "system": "peptide", "setting": "traces traces, C-terminal pulling, 800 nm/s", "measurement": "mean rupture force", "result": "55.1 pN"}
{"Substance": "durvalumab", "system": "human, plasma", "setting": "intravenous, 1500 mg, cycle 1 day 1, geometric mean, together with: adavosertib 200 mg once daily", "measurement": "Cmax", "result": "327 µg/mL"}
{"Substance": "phosphatidylinositol 3,4,5-trisphosphate", "target or system": "adenosine A2A receptor thermostabilised", "assay": "equilibrium dialysis LC-MS", "setting": "concentration not given", "how to read": "baseline: no protein", "measurement": "log2 fold change", "result": -0.316}
{"Substance": "VVVGACGVGK", "target or system": "HLA-A*11:01 peptide-β2M single-chain trimer", "assay": "western blot, refers to: pMHC-I", "system": "peptide, 293T cells", "setting": "24 h, unit not given, together with: 100 µg/mL cycloheximide", "how to read": "baseline: time zero", "measurement": "remaining protein", "result": "0.742 and 0.72 and 0.728"}
{"Substance": "SVWLRKETRV", "target or system": "construct, MBP fusion, human SCRIB, PDZ 3-4", "assay": "surface plasmon resonance", "system": "peptide", "setting": "concentration not given", "how to read": "higher = stronger binding", "measurement": "normalised SPR binding response", "result": "97.1 normalised RU"}
{"Substance": "human G6PD", "target or system": "PP6C (human)", "assay": "co-immunoprecipitation, IP-MS", "system": "CYB5R4 knockout cells", "setting": "concentration not given", "how to read": "baseline: CYB5R4 knockout over parental", "measurement": "log2 fold change", "result": -0.12}
{"Substance": "α-terpineol", "target or system": "Nrf2", "assay": "Nrf2 induction, inducer", "how to read": "baseline: control", "measurement": "fold induction", "result": "1.15 fold"}
{"Substance": "NPDALPETLV", "target or system": "construct, MBP fusion, human SCRIB, PDZ 3-4", "assay": "automated holdup", "system": "peptide, purified PDZ protein", "setting": "concentration not given, unit not given", "how to read": "baseline: biotin control resin, higher = stronger binding", "measurement": "binding intensity", "result": 0.265}
{"Substance": "Peginesatide", "target or system": "UT7/EPO", "assay": "microarray, refers to: PLSCR1 mRNA (probe set 241916_at)", "setting": "20 nM, 90 min", "how to read": "baseline: vehicle", "measurement": "mRNA level", "result": "2.7 fold"}
{"Substance": "human GAPDH", "target or system": "PP6C (human)", "assay": "co-immunoprecipitation, IP-MS", "system": "CYB5R4 knockout cells", "setting": "concentration not given", "how to read": "baseline: CYB5R4 knockout over parental", "measurement": "log2 fold change", "result": 0.58}
{"Substance": "SYGRPRVAAAP (phosphorylated)", "target or system": "VSR1 N-terminal domain (Arabidopsis thaliana)", "assay": "pull-down", "system": "peptide", "setting": "concentration not given, pH 7.1", "measurement": "binding", "result": "inhibited"}
{"Substance": "Malic enzyme 2 S121Q (human)", "assay": "enzyme activity, activator, NADH absorbance", "system": "recombinant enzyme", "setting": "range over 0 to 5 mM, pH 7.4", "how to read": "baseline: wild type", "measurement": "activation fold", "result": 0.9}
{"Substance": "GSGAGHETIV", "target or system": "construct, MBP fusion, human SCRIB, PDZ 3-4", "assay": "surface plasmon resonance", "system": "peptide", "setting": "concentration not given", "how to read": "higher = stronger binding", "measurement": "normalised SPR binding response", "result": "7.4 normalised RU"}
{"Substance": "TTFFDYDYGA", "target or system": "CCL7 (human)", "assay": "binding, nano-ESI mass spectrometry", "system": "peptide", "setting": "10 µM, pH 6.8", "measurement": "association constant", "result": "10000 M⁻¹"}
{"Substance": "VVVGASGVGK", "target or system": "HLA-A*11:01 peptide-β2M single-chain trimer", "assay": "western blot, refers to: pMHC-I", "system": "peptide, 293T cells", "setting": "12 h, unit not given, together with: 100 µg/mL cycloheximide", "how to read": "baseline: time zero", "measurement": "remaining protein", "result": "0.812 and 0.759 and 0.774"}
{"Substance": "B2 (human AHCYL1)", "target or system": "PP6C (human)", "assay": "co-immunoprecipitation, IP-MS", "system": "CYB5R4 knockout cells", "setting": "concentration not given", "how to read": "baseline: CYB5R4 knockout over parental", "measurement": "log2 fold change", "result": -0.71}
{"Substance": "QSARYRDTEL", "target or system": "construct, MBP fusion, human SCRIB, PDZ 3-4", "assay": "surface plasmon resonance", "system": "peptide", "setting": "concentration not given", "how to read": "higher = stronger binding", "measurement": "normalised SPR binding response", "result": "38.5 normalised RU"}
{"Substance": "B3 (human eRF3b)", "target or system": "PP6C (human)", "assay": "co-immunoprecipitation, IP-MS", "system": "CYB5R4 knockout cells", "setting": "concentration not given", "how to read": "baseline: CYB5R4 knockout over parental", "measurement": "log2 fold change", "result": 0.0855}
{"Substance": "secretory leukocyte protease inhibitor", "target or system": "JNK (mouse)", "assay": "Western blot", "system": "RAW264.7", "setting": "concentration not given, 6 h pretreatment, together with: LPS for 30 min", "measurement": "p-JNK/JNK ratio", "result": "0.76 ± 0.16"}
{"Substance": "GSGAGKETEC", "target or system": "construct, MBP fusion, human SCRIB, PDZ 3-4", "assay": "surface plasmon resonance", "system": "peptide", "setting": "concentration not given", "how to read": "higher = stronger binding", "measurement": "normalised SPR binding response", "result": "0 normalised RU"}
{"Substance": "human ME2 A65V mutant", "assay": "enzyme activity, NADH absorbance", "setting": "without fumarate, together with: L-malate varied", "measurement": "Hill coefficient", "result": "1.19 ± 0.07"}
{"Substance": "ALB (Homo sapiens, UniProt P02768)", "target or system": "ZNF101 (Homo sapiens, UniProt Q8IZC7)", "assay": "cross-linking MS", "setting": "together with: DSSO", "measurement": "cross-linked residues", "result": "K219 to K290"}
{"Substance": "colistin", "target or system": "Pseudomonas aeruginosa", "system": "clinical isolate RKI 589/12", "measurement": "MIC", "result": "≤ 1 µg/mL"}
{"Substance": "FGA (Homo sapiens, UniProt P02671)", "target or system": "RASA2 (Homo sapiens, UniProt Q15283)", "assay": "cross-linking MS", "setting": "together with: DSSO", "measurement": "cross-linked residues", "result": "K157 to K820"}
{"Substance": "GSGAGKESYV", "target or system": "construct, MBP fusion, human SCRIB, PDZ 3-4", "assay": "automated holdup", "system": "peptide, purified PDZ protein", "setting": "concentration not given, unit not given", "how to read": "baseline: biotin control resin, higher = stronger binding", "measurement": "binding intensity", "result": 0.132}
{"note": "A few entries again:"}
{"Substance": "B1 (human CAP2)", "target or system": "PP6C (human)", "assay": "co-immunoprecipitation, IP-MS", "system": "CYB5R4 knockout cells", "setting": "concentration not given", "how to read": "baseline: CYB5R4 knockout over parental", "measurement": "log2 fold change", "result": -0.19}
{"Substance": "human G6PD", "target or system": "PP6C (human)", "assay": "co-immunoprecipitation, IP-MS", "system": "CYB5R4 knockout cells", "setting": "concentration not given", "how to read": "baseline: CYB5R4 knockout over parental", "measurement": "log2 fold change", "result": -0.12}
